Experimental data of several laboratories.
A part holds a random share of what one study measured. “And” joins repeats or separate records; there may be more than shown.
Sequence of UniProt Q00535 (whole entry, looked up): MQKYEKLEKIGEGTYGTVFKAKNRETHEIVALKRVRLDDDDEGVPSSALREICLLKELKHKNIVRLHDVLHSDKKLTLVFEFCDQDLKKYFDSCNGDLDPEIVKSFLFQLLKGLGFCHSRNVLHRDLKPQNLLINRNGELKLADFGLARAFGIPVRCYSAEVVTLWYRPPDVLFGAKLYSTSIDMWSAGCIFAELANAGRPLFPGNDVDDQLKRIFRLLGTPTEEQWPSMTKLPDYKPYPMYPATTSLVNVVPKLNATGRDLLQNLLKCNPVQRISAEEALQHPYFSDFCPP
Sequence of UniProt Q14012 (whole entry, looked up): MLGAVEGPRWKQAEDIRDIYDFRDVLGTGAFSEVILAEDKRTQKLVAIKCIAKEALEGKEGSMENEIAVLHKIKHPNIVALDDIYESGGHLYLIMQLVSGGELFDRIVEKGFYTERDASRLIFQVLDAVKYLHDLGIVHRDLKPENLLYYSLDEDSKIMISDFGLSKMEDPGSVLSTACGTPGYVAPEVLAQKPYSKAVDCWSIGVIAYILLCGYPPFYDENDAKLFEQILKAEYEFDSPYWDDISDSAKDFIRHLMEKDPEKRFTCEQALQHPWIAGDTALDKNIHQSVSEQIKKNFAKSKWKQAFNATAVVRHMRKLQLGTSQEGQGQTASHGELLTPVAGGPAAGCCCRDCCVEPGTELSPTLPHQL
Sequence of UniProt P29597 (whole entry, looked up): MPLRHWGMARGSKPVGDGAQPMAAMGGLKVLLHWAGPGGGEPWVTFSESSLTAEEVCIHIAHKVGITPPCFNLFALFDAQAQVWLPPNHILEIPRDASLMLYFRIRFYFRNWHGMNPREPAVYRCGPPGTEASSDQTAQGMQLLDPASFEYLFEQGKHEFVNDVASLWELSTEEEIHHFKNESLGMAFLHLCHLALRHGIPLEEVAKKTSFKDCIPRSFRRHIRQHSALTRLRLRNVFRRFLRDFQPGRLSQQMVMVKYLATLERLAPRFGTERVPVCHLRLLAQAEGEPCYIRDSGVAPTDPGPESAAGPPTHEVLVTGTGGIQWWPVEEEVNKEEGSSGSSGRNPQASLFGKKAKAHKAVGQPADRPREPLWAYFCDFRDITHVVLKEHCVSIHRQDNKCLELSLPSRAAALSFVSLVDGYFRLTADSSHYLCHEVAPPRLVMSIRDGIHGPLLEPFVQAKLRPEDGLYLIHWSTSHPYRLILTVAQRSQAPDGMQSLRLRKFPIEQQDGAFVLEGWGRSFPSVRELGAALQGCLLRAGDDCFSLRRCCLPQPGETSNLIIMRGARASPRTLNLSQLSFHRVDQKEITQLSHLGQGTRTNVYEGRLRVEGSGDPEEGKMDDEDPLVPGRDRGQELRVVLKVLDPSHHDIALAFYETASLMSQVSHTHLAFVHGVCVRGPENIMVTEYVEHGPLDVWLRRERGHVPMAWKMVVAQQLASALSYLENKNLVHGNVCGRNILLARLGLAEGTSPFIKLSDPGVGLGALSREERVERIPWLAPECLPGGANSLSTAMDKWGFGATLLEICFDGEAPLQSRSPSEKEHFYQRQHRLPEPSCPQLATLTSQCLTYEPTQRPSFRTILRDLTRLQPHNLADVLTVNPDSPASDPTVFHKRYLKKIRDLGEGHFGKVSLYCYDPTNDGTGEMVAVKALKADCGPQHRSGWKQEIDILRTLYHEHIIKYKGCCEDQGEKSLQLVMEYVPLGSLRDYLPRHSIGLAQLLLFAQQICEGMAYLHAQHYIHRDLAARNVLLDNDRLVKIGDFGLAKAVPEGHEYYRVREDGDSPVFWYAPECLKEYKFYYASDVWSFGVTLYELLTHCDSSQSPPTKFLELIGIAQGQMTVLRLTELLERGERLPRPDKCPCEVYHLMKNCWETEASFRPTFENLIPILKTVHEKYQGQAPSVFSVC
Sequence of UniProt Q16832 (whole entry, looked up): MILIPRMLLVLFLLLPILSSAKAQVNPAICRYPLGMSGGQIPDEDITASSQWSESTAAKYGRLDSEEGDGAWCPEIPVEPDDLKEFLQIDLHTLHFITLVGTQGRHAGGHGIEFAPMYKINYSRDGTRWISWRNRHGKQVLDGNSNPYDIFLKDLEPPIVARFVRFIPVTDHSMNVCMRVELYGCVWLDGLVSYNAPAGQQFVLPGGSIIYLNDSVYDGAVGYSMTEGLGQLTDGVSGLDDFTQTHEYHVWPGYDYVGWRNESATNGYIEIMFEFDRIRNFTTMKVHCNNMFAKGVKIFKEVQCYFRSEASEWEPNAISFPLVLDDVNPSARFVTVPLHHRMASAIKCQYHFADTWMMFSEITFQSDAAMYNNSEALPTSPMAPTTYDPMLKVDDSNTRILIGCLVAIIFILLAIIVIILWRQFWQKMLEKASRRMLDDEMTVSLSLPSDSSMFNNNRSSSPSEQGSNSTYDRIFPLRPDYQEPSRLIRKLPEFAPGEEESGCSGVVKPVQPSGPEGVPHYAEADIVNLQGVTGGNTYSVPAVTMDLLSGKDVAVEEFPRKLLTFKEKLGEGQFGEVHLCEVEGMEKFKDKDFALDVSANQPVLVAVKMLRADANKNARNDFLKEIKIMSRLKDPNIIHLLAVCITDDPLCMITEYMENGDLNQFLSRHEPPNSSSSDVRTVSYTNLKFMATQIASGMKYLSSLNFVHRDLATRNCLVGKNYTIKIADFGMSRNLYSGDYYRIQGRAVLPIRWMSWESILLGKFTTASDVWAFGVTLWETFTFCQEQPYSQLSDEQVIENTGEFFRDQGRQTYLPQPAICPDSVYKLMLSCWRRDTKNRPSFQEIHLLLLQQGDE
Sequence of UniProt Q13882 (whole entry, looked up): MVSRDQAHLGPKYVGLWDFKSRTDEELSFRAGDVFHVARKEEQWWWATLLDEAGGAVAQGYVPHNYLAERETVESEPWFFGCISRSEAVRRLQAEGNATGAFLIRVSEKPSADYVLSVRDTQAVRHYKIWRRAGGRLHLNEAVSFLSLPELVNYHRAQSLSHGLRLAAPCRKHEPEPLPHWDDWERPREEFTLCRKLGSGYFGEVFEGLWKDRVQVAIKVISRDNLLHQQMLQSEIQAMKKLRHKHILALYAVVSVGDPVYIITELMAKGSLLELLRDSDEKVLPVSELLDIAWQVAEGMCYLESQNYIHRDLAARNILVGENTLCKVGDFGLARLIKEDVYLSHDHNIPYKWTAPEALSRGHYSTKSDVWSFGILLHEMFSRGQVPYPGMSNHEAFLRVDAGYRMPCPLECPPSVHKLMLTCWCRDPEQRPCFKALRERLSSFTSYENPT

Set 1 — effect on: thermal unfolding; method: differential scanning fluorimetry; concentration: 5.5 µM; direction: higher = more unfolded
SMILES: C[C@@H]1CN(c2ccc(-c3cc(C(=O)NCCOCCOCCOCCOCCNC(=O)Cn4cc(-c5[nH]cc(C(=O)N[C@@H](CC(N)=O)c6ccc(F)c(Cl)c6)c5-c5ccc(Cl)cc5F)cn4)ccc3F)cc2NC(=O)c2c[nH]c(=O)cc2C(F)(F)F)C[C@H](C)N1C
DCAF1: DDB1- and CUL4-associated factor 1 (DCAF1, Homo sapiens, UniProt Q9Y4B6)
Sequence of UniProt Q9Y4B6 (whole entry, looked up): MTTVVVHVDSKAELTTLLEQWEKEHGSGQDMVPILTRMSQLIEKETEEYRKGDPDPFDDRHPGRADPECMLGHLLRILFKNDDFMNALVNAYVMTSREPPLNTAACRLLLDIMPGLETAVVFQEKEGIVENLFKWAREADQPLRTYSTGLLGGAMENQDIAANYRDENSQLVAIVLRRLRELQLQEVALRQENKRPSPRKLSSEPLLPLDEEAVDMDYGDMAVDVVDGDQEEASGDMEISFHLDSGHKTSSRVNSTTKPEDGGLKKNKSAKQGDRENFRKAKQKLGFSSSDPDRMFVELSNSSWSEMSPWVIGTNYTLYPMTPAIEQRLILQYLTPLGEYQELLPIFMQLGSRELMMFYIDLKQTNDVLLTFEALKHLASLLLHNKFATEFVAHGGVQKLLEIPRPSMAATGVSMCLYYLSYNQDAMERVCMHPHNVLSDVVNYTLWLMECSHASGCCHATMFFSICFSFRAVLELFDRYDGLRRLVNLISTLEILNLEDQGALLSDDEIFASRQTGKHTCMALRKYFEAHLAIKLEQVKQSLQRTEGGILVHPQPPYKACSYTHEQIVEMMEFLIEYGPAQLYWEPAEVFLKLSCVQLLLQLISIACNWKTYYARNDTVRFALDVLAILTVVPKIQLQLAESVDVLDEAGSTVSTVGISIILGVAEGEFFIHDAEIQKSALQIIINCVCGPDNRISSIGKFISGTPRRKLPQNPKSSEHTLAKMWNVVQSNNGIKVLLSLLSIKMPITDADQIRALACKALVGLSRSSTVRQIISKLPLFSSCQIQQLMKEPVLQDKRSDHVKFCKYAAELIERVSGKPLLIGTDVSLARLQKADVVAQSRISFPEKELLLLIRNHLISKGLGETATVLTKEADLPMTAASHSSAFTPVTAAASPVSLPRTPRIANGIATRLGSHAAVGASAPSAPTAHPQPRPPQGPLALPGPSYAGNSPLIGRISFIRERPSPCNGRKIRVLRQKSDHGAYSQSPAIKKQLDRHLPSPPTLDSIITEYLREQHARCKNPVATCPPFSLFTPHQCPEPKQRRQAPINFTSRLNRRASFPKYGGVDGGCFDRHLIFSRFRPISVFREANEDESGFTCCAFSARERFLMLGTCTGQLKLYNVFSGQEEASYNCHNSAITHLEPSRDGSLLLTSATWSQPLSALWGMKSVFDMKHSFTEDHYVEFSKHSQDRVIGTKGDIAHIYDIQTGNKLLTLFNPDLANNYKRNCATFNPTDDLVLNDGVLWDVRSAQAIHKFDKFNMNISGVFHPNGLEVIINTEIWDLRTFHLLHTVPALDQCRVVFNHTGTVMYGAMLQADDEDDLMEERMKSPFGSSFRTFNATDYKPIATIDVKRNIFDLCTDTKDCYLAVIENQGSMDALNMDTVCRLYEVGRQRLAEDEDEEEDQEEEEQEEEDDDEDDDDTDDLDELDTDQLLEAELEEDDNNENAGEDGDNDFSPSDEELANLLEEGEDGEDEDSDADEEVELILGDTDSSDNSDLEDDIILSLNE
WDR5: WD repeat-containing protein 5 (WDR5, Homo sapiens, UniProt P61964)
DCAF1; 54.61 °C — “SYPRO Orange fluorescence”: 18700 a.u.
The “SYPRO Orange fluorescence” was 44900 a.u. (DCAF1; 79.21 °C).
DCAF1; 46 °C — “SYPRO Orange fluorescence”: 12700 a.u.
It gave 14400 a.u. for “SYPRO Orange fluorescence” (WDR5; 44.8 °C).
It gave 12200 a.u. for “SYPRO Orange fluorescence” (WDR5; 57.61 °C).
WDR5; 36.8 °C — “SYPRO Orange fluorescence”: 14300 a.u.
WDR5; 33.2 °C — “SYPRO Orange fluorescence”: 14300 a.u.
WDR5; 79.21 °C — “SYPRO Orange fluorescence”: 20800 a.u.
For DCAF1; 61.01 °C: “SYPRO Orange fluorescence” read 43100 a.u.
The “SYPRO Orange fluorescence” was 52000 a.u. (DCAF1; 72.41 °C).
For DCAF1; 70.61 °C: “SYPRO Orange fluorescence” read 53800 a.u.

Set 2 — cell line: HCC1569; effect on: CDK1 Thr14 phosphorylation; method: in-cell western; concentration: 37.04 nM; direction: lower = stronger inhibition
`Cc1ccc(O)c(C)c1-c1cnc2[nH]c(-c3cnc(N4CCC5(CC4)CC(N4CCN(c6ccc(NC7CCC(=O)NC7=O)cc6F)CC4)CO5)nc3)cc2c1C#N` (stereo not shown): “phospho-CDK1 (Thr14) level” 62.2 a.u. and 53.1 a.u.
`Cc1ccc(O)c(C)c1-c1cnc2[nH]c(-c3cnc(N4CCC(CN5CCC(c6ccc(NC7CCC(=O)NC7=O)cc6F)CC5)CC4)nc3)cc2c1C#N` (stereo not shown) — result for “phospho-CDK1 (Thr14) level”: 51.5 a.u. and 33.9 a.u.
`Cc1ccc(O)c(C)c1-c1cnc2[nH]c(-c3cnc(N4CCC(CN5CCN(c6ccc7c(c6)C(=O)N(C6CCC(=O)NC6=O)C7=O)CC5)CC4)nc3)cc2c1C#N` (stereo not shown): “phospho-CDK1 (Thr14) level” 43.7 a.u. and 52.8 a.u.
Under “phospho-CDK1 (Thr14) level”, `Cc1ccc(O)c(C)c1-c1cnc2[nH]c(-c3cnc(N4CC5(CC(CN6CCN(c7ccc(NC8CCC(=O)NC8=O)cc7F)CC6)C5)C4)nc3)cc2c1C#N` (stereo not shown) is recorded as 53.6 a.u. and 62.4 a.u.
Under “phospho-CDK1 (Thr14) level”, `Cc1ccc(O)c(C)c1-c1cnc2[nH]c(-c3cnc(N4CCC(CN5CCN(c6ccc(NC7CCC(=O)NC7=O)cc6F)CC5)CC4)nc3)cc2c1C#N` (stereo not shown) is recorded as 47.2 a.u. and 38.2 a.u.

Set 3 — route: intravenous
SMILES: Cc1ncsc1-c1ccc(C(CO)NC(=O)C2CC(O)CN2C(=O)C(C(C)C)n2cc(-c3ccc(COc4c(-c5c(C)c(F)cc6[nH]ncc56)c(C5CC5)cc5c(N6CC7CC6CN7)nc(OC6CCOCC6)nc45)cc3)nn2)cc1 (stereo not shown)
For mouse, PK-59 xenograft, pancreas; 10 mg/kg, 144 h: concentration read 2.45 ng/g and 3.08 ng/g and 5.03 ng/g.
It gave 13.8 ng/mL and 13.2 ng/mL for concentration (male Balb/c nu/nu mouse, PK-59 xenograft, plasma; 10 mg/kg, 24 h).
male Balb/c nu/nu mouse (PK-59 xenograft), tumor; 10 mg/kg, 24 h — concentration: 172 ng/g.
For mouse (PK-59 xenograft), plasma; 30 mg/kg, 72 h: concentration read 9.15 ng/mL and 6.2 ng/mL and 4.31 ng/mL.
For male Balb/c nu/nu mouse (PK-59 xenograft), tumor; 10 mg/kg, 2 h: concentration read 441 ng/g.
It gave 900 ng/g and 1110 ng/g for concentration (mouse, PK-59 xenograft, tumor; 30 mg/kg, 72 h).
It gave 800 ng/g for concentration (male Balb/c nu/nu mouse (PK-59 xenograft), tumor; 30 mg/kg, 24 h).
For male Balb/c nu/nu mouse (PK-59 xenograft), plasma; 10 mg/kg, 6 h: concentration read 239 ng/mL.

Set 4 — effect on: kinase activity
Structure (SMILES): CN(C1COC1)C(C)(C)/C=C(\C#N)C(=O)N1CCC[C@H]1Cn1nc(-c2ccc(Oc3ccccc3)cc2F)c2c(N)ncnc21
It gave 2% for inhibition (NTRK2 (Homo sapiens, UniProt Q16620); 0.1 µM).
PTK6 (Homo sapiens, UniProt Q13882); 0.1 µM — inhibition: 24%.
The inhibition was 19% (FGFR1 (Homo sapiens, UniProt P11362); 1 µM).
It gave 3% for inhibition (CAMK1 (Homo sapiens, UniProt Q14012); 0.1 µM).
MST1R (Homo sapiens, UniProt Q04912); 1 µM — inhibition: -3%.
It gave 3% for inhibition (Cyclin-dependent kinase 5, with p25 (CDK5, Homo sapiens, UniProt Q00535); 0.1 µM).
For MERTK (Homo sapiens, UniProt Q12866); 1 µM: inhibition read 2%.
CLK2 (Homo sapiens, UniProt P49760); 1 µM — inhibition: 2%.
HIPK2 (Homo sapiens, UniProt Q9H2X6); 0.1 µM — inhibition: 3%.
For TYK2 (Homo sapiens, UniProt P29597); 1 µM: inhibition read -1%.
The inhibition was -12% (IKBKE (Homo sapiens, UniProt Q14164); 1 µM).
For ROCK2 (Homo sapiens, UniProt O75116); 1 µM: inhibition read 1%.
It gave 5% for inhibition (PKN2 (Homo sapiens, UniProt Q16513); 1 µM).
For BRSK1 (Homo sapiens, UniProt Q8TDC3); 0.1 µM: inhibition read 4%.
For PRKD1 (Homo sapiens, UniProt Q15139); 1 µM: inhibition read -5%.
For DDR2 (Homo sapiens, UniProt Q16832); 0.1 µM: inhibition read -10%.

Excerpt of the above (set 4):
For ROCK2 (Homo sapiens, UniProt O75116); 1 µM: inhibition read 1%.
CLK2 (Homo sapiens, UniProt P49760); 1 µM — inhibition: 2%.
